Published values pooled from the literature.
Parts stem from different laboratories: compare values within a part only.
UniProt P15056, sequence (whole entry, looked up): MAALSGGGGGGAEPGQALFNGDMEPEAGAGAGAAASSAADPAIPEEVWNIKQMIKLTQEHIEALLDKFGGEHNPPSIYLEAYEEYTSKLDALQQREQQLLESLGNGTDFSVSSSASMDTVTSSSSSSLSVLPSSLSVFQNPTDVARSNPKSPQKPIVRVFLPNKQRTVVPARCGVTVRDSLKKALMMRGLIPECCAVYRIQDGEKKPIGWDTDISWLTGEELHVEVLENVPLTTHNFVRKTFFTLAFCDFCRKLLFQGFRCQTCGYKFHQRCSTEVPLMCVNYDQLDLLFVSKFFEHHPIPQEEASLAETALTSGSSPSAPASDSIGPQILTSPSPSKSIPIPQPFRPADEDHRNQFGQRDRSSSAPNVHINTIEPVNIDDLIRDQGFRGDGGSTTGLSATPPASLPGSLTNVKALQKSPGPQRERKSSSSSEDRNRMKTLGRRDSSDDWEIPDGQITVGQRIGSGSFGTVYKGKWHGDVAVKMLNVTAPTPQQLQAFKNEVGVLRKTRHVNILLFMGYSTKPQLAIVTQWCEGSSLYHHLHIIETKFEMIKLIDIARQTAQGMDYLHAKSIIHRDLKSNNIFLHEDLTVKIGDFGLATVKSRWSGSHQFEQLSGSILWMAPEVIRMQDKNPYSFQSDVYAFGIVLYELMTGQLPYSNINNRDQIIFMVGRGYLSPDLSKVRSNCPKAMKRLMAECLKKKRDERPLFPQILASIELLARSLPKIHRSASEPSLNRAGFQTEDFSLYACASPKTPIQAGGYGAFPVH
UniProt P61075, sequence (whole entry, looked up): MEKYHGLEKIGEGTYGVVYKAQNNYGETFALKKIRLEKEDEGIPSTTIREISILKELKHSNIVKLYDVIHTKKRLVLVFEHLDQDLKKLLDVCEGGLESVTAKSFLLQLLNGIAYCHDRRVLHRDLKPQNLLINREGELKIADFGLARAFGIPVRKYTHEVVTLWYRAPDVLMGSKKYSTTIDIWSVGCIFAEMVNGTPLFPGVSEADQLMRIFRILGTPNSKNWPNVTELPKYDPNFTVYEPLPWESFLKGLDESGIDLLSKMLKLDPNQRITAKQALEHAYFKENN
UniProt P60842, sequence (whole entry, looked up): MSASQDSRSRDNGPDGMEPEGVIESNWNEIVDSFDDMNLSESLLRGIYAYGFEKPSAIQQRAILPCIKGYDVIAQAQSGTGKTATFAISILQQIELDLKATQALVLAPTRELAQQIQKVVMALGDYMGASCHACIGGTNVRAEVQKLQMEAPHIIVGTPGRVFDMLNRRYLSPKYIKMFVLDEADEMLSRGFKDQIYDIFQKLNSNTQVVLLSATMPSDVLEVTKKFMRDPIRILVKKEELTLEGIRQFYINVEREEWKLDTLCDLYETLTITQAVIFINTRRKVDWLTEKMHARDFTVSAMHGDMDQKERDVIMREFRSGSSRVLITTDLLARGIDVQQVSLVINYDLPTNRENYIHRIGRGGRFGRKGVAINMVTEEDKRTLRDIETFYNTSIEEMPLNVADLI

Study 1 — host: mouse; sample: microsomes or S9; concentration: 2 µM; time: 0.5 h; endpoint: remaining compound
Cc1nc(Cl)c(Cl)n1Cc1ccc(Cl)nc1: 28.7%
Cc1cc(C#N)cc(C(=O)NCc2ccc3c(c2)OCO3)c1NC(=O)c1cc(Br)nn1-c1ncccc1Cl: 16.6%
C/C(NN1CCCCCC1)=C1\C(=O)N(C2CCCCC2)C(=O)N=C1O: 16.8%

Other studies, line by line
POLQ ATPase domain: DNA polymerase theta, ATPase domain (POLQ, Homo sapiens, UniProt O75417)
UniProt O75417, sequence (whole entry, unmodified, looked up): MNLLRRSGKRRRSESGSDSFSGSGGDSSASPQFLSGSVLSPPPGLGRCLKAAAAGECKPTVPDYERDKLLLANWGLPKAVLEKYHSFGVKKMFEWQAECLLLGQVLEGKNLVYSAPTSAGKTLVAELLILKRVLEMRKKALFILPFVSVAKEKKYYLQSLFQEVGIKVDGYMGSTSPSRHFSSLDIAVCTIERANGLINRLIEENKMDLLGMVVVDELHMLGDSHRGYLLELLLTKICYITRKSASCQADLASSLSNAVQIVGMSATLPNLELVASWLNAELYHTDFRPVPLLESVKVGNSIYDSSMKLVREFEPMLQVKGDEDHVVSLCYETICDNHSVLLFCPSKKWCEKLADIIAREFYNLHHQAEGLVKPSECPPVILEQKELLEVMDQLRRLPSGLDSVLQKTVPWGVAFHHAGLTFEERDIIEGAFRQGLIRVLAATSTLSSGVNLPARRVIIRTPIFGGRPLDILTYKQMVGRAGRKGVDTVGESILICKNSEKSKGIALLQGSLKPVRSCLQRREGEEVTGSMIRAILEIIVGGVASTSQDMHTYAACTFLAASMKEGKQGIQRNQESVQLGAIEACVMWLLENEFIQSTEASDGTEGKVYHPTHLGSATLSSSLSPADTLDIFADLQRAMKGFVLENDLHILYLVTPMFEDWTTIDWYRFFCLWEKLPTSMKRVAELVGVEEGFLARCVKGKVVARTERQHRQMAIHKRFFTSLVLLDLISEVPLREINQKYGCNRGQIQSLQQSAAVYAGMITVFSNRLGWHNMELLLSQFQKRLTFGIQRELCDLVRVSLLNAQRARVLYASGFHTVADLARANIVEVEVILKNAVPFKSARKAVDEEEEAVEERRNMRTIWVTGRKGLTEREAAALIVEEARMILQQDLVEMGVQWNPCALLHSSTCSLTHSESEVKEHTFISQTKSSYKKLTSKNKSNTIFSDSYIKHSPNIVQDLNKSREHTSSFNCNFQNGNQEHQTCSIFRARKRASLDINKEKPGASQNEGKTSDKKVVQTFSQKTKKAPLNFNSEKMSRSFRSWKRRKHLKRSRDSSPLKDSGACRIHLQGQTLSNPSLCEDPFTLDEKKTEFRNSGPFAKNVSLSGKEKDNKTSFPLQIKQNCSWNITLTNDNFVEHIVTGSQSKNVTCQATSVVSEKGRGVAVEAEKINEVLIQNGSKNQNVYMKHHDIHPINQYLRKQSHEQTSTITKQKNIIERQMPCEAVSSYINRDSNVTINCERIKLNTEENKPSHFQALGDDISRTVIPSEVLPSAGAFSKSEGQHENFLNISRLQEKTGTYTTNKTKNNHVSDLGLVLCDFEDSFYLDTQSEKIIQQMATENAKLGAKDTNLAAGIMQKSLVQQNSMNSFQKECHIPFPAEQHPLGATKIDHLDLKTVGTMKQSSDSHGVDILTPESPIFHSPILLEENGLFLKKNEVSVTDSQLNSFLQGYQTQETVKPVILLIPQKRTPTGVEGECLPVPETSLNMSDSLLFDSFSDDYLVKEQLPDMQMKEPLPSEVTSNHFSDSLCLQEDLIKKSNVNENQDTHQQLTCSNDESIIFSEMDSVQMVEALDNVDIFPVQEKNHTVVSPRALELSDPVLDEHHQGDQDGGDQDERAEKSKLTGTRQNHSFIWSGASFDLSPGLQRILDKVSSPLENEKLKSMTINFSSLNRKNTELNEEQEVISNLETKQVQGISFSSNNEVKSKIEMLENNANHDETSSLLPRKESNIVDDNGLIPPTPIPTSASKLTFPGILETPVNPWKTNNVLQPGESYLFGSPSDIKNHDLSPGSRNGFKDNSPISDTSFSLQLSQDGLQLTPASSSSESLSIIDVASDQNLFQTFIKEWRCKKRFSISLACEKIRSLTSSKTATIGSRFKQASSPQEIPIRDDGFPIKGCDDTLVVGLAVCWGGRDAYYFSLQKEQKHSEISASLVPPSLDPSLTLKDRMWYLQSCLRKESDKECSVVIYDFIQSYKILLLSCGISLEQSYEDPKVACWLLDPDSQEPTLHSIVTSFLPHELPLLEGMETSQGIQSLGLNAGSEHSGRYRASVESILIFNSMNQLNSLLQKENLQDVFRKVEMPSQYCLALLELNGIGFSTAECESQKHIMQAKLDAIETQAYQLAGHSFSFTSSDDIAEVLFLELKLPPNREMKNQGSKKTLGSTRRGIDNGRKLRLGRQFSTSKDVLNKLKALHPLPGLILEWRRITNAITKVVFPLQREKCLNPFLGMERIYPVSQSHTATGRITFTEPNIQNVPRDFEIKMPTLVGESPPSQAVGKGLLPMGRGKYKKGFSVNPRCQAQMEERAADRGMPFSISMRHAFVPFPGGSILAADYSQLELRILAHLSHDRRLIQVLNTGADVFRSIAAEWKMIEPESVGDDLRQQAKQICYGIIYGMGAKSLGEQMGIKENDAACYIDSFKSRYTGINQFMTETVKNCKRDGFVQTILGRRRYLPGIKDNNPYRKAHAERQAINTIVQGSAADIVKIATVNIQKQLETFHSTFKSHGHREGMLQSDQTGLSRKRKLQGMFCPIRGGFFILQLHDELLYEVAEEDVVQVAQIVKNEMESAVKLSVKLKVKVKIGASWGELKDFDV
O=C(NCc1ncc(C(F)(F)F)cc1Cl)c1ccc2c(c1)C1(CCS(=O)(=O)CC1)[C@@H](C1CC1)N2S(=O)(=O)c1ccc(F)cc1 — remaining binding (Serine/threonine-protein kinase B-raf (BRAF, Homo sapiens, UniProt P15056); cell-free assay, competition with immobilised ligand; 1 µM): 96%
O=c1[nH]oc2c1CCNC2 — remaining activity (POLQ ATPase domain; enzyme activity, inhibitor; 77 µM; relative to: untreated): 98.7%
CS(=O)(=O)c1cc(C2(NC(=O)c3cncc4c3cnn4-c3ccc(F)cc3)CC2)ccn1 — remaining binding (Cyclin-dependent kinase 2 homolog (CRK2, Plasmodium falciparum, UniProt P61075); cell-free assay, competition with immobilised ligand; 1 µM): 100%
COC[C@H]1OC(=O)c2coc3c2[C@@]1(C)C1=C(C3=O)C2CCC(=O)[C@@]2(C)C[C@H]1OC(C)=O (some centres unmarked) — remaining activity (POLQ ATPase domain; enzyme activity, inhibitor; 77 µM; relative to: untreated): 95.9%
COC(=O)[C@H]1[C@H](c2ccccc2)[C@]2(c3ccc(OC)cc3)Oc3cc(OC)cc(OC)c3[C@@]1(O)C2O (some centres unmarked) — fluorescence polarization change (Eukaryotic initiation factor 4A-I (EIF4A1, Homo sapiens, UniProt P60842); RNA clamping, fluorescence polarization; concentration not given, mean of two replicates, with: FAM-labelled poly r(AG)8 RNA): 1.7 mP

Excerpt of the above (other studies, line by line):
COC(=O)[C@H]1[C@H](c2ccccc2)[C@]2(c3ccc(OC)cc3)Oc3cc(OC)cc(OC)c3[C@@]1(O)C2O (some centres unmarked) — fluorescence polarization change (Eukaryotic initiation factor 4A-I (EIF4A1, Homo sapiens, UniProt P60842); RNA clamping, fluorescence polarization; concentration not given, mean of two replicates, with: FAM-labelled poly r(AG)8 RNA): 1.7 mP
